{"data": "Measured values of several laboratories", "RNA riboswitch": "RNA riboswitch (Geobacter sulfurreducens)", "T1": "RNA aptamer U54G; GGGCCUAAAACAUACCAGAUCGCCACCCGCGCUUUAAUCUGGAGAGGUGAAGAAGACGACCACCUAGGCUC", "T2": "RNA aptamer; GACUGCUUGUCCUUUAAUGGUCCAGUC", "T3": "RNA aptamer, 2'-F pyrimidines; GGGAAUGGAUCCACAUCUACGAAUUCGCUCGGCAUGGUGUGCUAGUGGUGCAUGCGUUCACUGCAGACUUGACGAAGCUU", "T4": "G-quadruplex DNA, monomeric G-quadruplex; GGTTAGGTTAGGTTAGG", "T5": "RNA riboswitch (Geobacter sulfurreducens); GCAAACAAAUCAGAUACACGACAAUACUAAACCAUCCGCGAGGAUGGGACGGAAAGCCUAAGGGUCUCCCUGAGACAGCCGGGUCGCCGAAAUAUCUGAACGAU", "T6": "RNA riboswitch A6G/A18U; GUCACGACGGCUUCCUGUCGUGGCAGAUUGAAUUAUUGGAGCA", "T7": "RNA hairpin; CGCGAAAGCG", "T8": "RNA aptamer; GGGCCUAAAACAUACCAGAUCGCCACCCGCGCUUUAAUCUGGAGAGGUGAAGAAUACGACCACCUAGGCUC", "T9": "G-quadruplex DNA (Homo sapiens); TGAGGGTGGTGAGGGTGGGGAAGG", "T10": "RNA riboswitch U36C; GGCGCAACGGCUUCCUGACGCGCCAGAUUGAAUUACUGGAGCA", "T11": "RNA riboswitch C30U (Lactobacillus rhamnosus); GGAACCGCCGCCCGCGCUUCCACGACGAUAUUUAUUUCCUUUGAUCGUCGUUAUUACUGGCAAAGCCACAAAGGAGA", "T12": "RNA aptamer A13U; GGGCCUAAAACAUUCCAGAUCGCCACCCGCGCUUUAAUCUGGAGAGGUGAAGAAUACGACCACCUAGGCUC", "note": "Lines come from different studies, so protocols differ."}
{"SMILES": "CN(C)[C@@H]1C(=O)C(C(N)=O)=C(O)[C@@]2(O)C(=O)C3=C(O)c4c(O)cccc4[C@@](C)(O)[C@H]3C[C@@H]12", "target": "T1, RNA aptamer U54G", "assay": "fluorescence titration", "conditions": "pH 7.5, 25 °C, MgCl2 10 mM", "Kd [nM]": 2.63}
{"SMILES": "NC[C@@H]1O[C@H](O[C@H]2[C@@H](O)[C@H](O[C@@H]3[C@@H](O)[C@H](N)C[C@H](N)[C@H]3O[C@H]3O[C@H](CN)[C@@H](O)[C@H](O)[C@H]3N)O[C@@H]2CO)[C@H](N)[C@@H](O)[C@@H]1O", "target": "T2, RNA aptamer", "assay": "ITC", "conditions": "NaCl 200 mM", "Kd [nM]": 9.2}
{"SMILES": "CNC1C(OC2OC(CO)C(N)C(O)C2O)OC2CC(N)C(OC3C(N)CC(NC(=O)CCOCCOCCOCCOCCOCCOCCOCCOCCOCCOCCOCCOCCNC(=O)CCCC[C@@H]4SC[C@@H]5NC(=O)N[C@@H]54)C(O)C3O)OC2C1O (stereo partly drawn)", "target": "T3, RNA aptamer, 2'-F pyrimidines", "assay": "SPR", "conditions": "apparent", "Kd [nM]": 58.4}
{"SMILES": "Cc1ccc(Cn2cc3c(-c4ccc5c(c4)OCO5)nnc-3c3cc4c(cc32)OCO4)cc1", "target": "T4, G-quadruplex DNA, monomeric G-quadruplex", "assay": "fluorescence titration", "conditions": "NaCl 100 mM", "Kd [nM]": 34500}
{"SMILES": "Nc1nc2c(ncn2[C@@H]2O[C@@H]3COP(=O)(O)O[C@H]4[C@@H](N)[C@H](n5cnc6c(N)ncnc65)O[C@@H]4COP(=O)(O)O[C@H]3[C@H]2N)c(=O)[nH]1", "target": "T5, RNA riboswitch (Geobacter sulfurreducens)", "assay": "competition gel shift", "conditions": "Mg2+ 10 mM, added: 32P c-AMP-GMP", "Kd [nM]": 2500}
{"SMILES": "C[S+](CC[C@H](N)C(=O)O)C[C@H]1O[C@@H](n2cnc3c(N)ncnc32)[C@H](O)[C@@H]1O (stereo partly drawn)", "target": "T6, RNA riboswitch A6G/A18U", "assay": "ITC", "conditions": "KCl 50 mM, one-site model", "Kd [nM]": 47000}
{"SMILES": "C[n+]1ccc(Nc2ccc(NC(=O)c3ccc(Nc4cc[n+](C)c5ccc(N)cc45)cc3)cc2)cc1", "target": "T7, RNA hairpin", "assay": "fluorescence titration", "conditions": "1000 nM, pH 7.0", "Kd [nM]": "> 200000"}
{"SMILES": "C[C@H]1c2cccc(O)c2C(O)=C2C(=O)[C@]3(O)C(O)=C(C(N)=O)C(=O)C[C@@H]3[C@@H](O)[C@@H]21", "target": "T8, RNA aptamer", "assay": "fluorescence titration", "conditions": "pH 7.5, 25 °C, MgCl2 10 mM", "Kd [nM]": 547}
{"SMILES": "C[n+]1ccc(/C=N/NC(=O)c2cncc(C(=O)N/N=C/c3cc[n+](C)c4ccccc34)n2)c2ccccc21", "target": "T9, G-quadruplex DNA (Homo sapiens)", "assay": "Cy5 fluorescence quenching titration", "conditions": "pH 7.2, KCl 100 mM", "Kd [nM]": 8.5}
{"SMILES": "Nc1ncnc2c1ncn2[C@@H]1O[C@H](CSCC[C@H](N)C(=O)O)[C@@H](O)[C@H]1O", "target": "T10, RNA riboswitch U36C", "assay": "ITC", "conditions": "KCl 50 mM, one-site model", "Kd [nM]": 13000}
{"SMILES": "Nc1nc2c(ncn2[C@@H]2O[C@@H]3COP(=O)(O)O[C@H]4[C@@H](O)[C@H](n5cnc6c(N)ncnc65)O[C@@H]4COP(=O)(O)O[C@H]3[C@H]2O)c(=O)[nH]1", "target": "T5, RNA riboswitch (Geobacter sulfurreducens)", "assay": "native gel shift", "conditions": "4 °C, Mg2+ 10 mM, added: 32P c-AMP-GMP", "Kd [nM]": 1.1}
{"SMILES": "Cc1c2c(c(O)c3c(O)cccc13)C(=O)[C@]1(O)C(O)=C(C(N)=O)C(=O)[C@@H](N(C)C)[C@@H]1C2", "target": "T8, RNA aptamer", "assay": "fluorescence titration", "conditions": "pH 7.5, 25 °C, MgCl2 10 mM", "Kd [nM]": 3.5}
{"SMILES": "NCc1c[nH]c2nc(N)[nH]c(=O)c12", "target": "T11, RNA riboswitch C30U (Lactobacillus rhamnosus)", "assay": "ITC", "conditions": "pH 7.0, NaCl 0.10 M", "Kd [nM]": 810}
{"SMILES": "C[C@H]1c2cccc(O)c2C(=O)C2=C(O)[C@]3(O)C(=O)C(C(N)=O)=C(O)[C@@H](N(C)C)[C@@H]3[C@@H](O)[C@@H]21", "target": "T12, RNA aptamer A13U", "assay": "fluorescence titration", "conditions": "pH 7.5, 25 °C, MgCl2 10 mM", "Kd [nM]": 2420}
{"SMILES": "Nc1nc2c(ncn2[C@@H]2O[C@@H]3COP(=O)(S)O[C@H]4[C@@H](O)[C@H](n5cnc6c(N)ncnc65)O[C@@H]4COP(=O)(S)O[C@H]3[C@H]2O)c(=O)[nH]1 (stereo partly drawn)", "target": "T5, RNA riboswitch (Geobacter sulfurreducens)", "assay": "competition gel shift", "conditions": "Mg2+ 10 mM, added: 32P c-AMP-GMP", "Kd [nM]": 1200}
